Published values pooled from the literature.
Each numbered part is a random draw from the data of one study; scales do not carry over between parts.
Sequence of UniProt P10721 (whole entry, unmodified, looked up): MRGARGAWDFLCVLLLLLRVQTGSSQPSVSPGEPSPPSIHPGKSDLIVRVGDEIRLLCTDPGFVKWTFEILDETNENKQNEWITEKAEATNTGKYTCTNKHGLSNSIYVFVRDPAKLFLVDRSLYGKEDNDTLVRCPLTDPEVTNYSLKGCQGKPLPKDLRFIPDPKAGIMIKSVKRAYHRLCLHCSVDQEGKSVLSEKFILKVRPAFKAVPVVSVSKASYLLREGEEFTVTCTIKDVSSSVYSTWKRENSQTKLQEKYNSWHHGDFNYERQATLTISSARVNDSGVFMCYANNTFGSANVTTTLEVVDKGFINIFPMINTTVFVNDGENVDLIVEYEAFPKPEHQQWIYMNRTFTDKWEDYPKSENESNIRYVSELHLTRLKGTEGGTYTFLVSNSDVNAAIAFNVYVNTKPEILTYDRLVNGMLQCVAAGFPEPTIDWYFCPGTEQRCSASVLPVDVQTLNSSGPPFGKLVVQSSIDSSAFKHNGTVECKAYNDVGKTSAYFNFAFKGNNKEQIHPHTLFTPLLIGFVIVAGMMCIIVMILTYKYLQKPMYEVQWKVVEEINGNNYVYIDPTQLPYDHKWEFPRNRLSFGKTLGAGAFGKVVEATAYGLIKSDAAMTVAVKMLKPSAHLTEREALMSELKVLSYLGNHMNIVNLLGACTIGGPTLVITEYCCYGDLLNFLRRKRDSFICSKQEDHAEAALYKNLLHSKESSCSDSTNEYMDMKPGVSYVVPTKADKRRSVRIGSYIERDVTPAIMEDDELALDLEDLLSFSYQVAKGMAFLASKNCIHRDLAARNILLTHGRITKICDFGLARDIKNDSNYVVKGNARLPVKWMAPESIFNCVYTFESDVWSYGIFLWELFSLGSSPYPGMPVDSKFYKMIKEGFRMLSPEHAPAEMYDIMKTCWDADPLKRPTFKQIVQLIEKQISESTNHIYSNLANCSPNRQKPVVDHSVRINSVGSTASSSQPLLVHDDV
Sequence of UniProt P51812 (whole entry, looked up): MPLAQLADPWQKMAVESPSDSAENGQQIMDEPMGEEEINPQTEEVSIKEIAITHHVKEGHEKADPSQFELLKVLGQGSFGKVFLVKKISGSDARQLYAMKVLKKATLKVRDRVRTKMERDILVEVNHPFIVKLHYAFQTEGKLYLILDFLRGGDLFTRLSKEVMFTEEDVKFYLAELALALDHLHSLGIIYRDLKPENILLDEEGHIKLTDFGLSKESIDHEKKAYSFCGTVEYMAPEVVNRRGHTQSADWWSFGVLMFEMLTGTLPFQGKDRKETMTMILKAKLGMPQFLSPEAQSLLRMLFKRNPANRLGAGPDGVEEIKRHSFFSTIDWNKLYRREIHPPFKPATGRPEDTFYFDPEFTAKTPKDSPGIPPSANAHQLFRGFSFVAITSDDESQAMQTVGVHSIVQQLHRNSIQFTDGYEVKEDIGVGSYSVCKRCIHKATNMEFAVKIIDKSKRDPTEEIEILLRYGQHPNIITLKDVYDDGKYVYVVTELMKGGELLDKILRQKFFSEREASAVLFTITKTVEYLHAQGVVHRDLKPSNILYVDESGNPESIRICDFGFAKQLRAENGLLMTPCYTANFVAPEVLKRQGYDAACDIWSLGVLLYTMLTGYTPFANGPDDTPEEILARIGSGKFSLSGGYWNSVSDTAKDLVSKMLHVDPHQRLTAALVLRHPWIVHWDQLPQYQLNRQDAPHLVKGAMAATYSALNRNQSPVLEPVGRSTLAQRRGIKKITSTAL
Sequence of UniProt Q13464 (whole entry, looked up): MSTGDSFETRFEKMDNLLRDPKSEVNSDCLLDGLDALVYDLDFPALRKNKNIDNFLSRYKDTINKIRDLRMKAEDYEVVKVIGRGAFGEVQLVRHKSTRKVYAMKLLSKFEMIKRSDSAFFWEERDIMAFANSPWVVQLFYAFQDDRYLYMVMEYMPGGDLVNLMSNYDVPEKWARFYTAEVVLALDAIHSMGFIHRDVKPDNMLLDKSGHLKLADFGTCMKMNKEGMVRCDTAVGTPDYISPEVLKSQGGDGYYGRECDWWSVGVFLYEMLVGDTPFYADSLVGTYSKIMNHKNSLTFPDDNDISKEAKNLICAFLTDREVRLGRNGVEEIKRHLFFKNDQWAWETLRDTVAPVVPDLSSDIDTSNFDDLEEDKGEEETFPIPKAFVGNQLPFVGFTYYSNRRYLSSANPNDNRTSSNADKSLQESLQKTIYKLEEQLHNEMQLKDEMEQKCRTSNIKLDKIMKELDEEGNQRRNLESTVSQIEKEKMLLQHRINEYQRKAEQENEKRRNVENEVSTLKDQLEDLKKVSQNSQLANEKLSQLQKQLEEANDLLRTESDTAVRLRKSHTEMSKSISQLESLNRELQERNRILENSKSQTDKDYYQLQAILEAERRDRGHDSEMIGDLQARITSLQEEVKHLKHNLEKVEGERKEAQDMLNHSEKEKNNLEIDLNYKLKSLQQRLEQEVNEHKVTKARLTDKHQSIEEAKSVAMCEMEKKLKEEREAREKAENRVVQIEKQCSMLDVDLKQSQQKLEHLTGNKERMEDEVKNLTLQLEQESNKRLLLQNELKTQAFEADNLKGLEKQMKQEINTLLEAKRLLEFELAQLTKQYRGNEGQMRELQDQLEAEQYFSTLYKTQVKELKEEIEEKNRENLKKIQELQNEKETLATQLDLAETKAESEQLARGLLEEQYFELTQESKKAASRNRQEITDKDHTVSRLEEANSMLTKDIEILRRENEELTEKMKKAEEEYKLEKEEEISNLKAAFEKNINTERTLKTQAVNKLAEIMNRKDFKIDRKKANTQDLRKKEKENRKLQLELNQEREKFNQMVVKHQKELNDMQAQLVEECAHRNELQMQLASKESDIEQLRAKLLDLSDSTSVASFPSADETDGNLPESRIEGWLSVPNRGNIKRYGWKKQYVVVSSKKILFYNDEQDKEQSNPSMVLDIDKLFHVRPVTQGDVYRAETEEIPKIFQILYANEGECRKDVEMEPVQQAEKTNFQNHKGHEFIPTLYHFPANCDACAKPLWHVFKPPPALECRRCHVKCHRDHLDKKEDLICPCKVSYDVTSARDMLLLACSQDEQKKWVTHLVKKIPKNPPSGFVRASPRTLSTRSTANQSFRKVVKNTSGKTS
Sequence of UniProt Q2M2I8 (whole entry, looked up): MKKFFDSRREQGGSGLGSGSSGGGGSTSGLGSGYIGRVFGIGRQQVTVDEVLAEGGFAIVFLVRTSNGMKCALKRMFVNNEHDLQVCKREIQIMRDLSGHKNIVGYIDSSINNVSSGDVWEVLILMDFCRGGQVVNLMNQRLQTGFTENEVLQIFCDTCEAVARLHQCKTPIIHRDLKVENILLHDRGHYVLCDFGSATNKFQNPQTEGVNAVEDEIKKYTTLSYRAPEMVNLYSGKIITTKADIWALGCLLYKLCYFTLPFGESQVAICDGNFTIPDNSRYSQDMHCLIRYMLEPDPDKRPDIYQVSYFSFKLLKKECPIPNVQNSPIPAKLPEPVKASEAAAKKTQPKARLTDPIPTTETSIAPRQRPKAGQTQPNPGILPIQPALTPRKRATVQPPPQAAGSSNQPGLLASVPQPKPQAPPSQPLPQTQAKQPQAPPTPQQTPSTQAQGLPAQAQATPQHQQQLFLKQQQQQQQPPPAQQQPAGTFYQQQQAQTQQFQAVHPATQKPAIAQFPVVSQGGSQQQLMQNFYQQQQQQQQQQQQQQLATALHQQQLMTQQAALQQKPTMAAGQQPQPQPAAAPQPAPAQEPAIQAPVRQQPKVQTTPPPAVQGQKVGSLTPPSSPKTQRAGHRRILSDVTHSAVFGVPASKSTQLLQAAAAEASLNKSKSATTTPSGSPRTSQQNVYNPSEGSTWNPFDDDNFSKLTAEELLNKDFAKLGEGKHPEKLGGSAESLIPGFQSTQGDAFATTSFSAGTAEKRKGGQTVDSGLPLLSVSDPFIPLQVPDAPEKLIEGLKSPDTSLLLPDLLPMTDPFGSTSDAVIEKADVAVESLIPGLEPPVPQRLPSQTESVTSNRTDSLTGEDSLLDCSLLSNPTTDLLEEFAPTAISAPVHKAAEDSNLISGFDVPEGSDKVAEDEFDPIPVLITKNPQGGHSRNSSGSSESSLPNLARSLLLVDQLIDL

Set 1
Target: Tyrosine-protein kinase HCK (HCK, Homo sapiens, UniProt P08631)
Sequence of UniProt P08631 (whole entry, looked up): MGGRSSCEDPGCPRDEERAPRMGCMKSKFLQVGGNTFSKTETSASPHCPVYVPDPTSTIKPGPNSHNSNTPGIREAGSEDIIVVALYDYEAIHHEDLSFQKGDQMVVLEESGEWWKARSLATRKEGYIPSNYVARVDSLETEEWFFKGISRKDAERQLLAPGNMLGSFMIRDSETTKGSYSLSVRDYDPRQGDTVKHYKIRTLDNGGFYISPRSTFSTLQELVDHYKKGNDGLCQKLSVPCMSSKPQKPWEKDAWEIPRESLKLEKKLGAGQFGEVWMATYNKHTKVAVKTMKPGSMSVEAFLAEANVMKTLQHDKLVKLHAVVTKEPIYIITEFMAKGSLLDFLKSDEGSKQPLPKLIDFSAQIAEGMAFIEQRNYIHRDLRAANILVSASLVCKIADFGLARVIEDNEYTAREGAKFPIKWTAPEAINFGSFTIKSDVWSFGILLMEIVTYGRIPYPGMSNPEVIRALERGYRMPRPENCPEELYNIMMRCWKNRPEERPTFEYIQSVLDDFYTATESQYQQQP
Observed: enzyme activity
Mode: inhibitor
Tested at: 0.5 µM
Relative to: control
With `COc1ccc(Cl)cc1NC(=O)Nc1cc(C)nc2ccccc12` the remaining activity was 101%.
The remaining activity of `COc1ccc(-c2cnc3c(-c4ccsc4)cnn3c2)cc1` is reported as 81.9%.
`COc1cc2ncc(-c3ccccc3)nc2cc1OC` gave a remaining activity of 96.9%.
`Cn1cnc2cc3c(Nc4cccc(Br)c4)ncnc3cc21` has a remaining activity of 70.4%.
`CCN1/C(=C/C(C)=O)Sc2ccc(OC)cc21` has a remaining activity of 97.5%.
For `CC(C)[C@H](CO)Nc1nc(Nc2cccc(Cl)c2)c2ncn(C(C)C)c2n1`, the remaining activity was 55.6%.
`COc1cc2ncnc(N3CCN(C(=O)Nc4ccc(Oc5ccccc5)cc4)CC3)c2cc1OC` gave a remaining activity of 91.7%.
The remaining activity of `Cc1ccc(NC(=O)c2ccc(CN3CCN(C)CC3)cc2)cc1Nc1nccc(-c2cccnc2)n1` is reported as 84.9%.
The remaining activity of `COc1cc2ncnc(Nc3ccc(OCc4ccccc4)cc3)c2cc1OC` is reported as 74.5%.
For `O=c1cc(N2CCOCC2)oc2c1ccc1ccccc12`, the remaining activity was 114%.
`O=C(Nc1ccc(Cl)cc1)c1ccccc1NCc1ccncc1` gave a remaining activity of 101%.
With `Nc1[nH]nc2nnc(-c3c(-c4ccccc4)nn4ccccc34)cc12` the remaining activity was 91.1%.
`Cn1cc(/C=C2\C(=O)Nc3ccc(S(N)(=O)=O)cc32)c2ccccc21` has a remaining activity of 50%.
With `CC(=O)O/N=C1/C(c2c(O)[nH]c3cc(Br)ccc23)=Nc2ccccc21` the remaining activity was 43.1%.
For `Cc1nc(Nc2ncc(C(=O)Nc3c(C)cccc3Cl)s2)cc(N2CCN(CCO)CC2)n1`, the remaining activity was 0.787%.
With `CCOc1cc2ncnc(Nc3cccc(Br)c3)c2cc1OCC` the remaining activity was 59.4%.
With `CC(C)c1nn(-c2c(Cl)cccc2Cl)c2nc(Cc3ccc(OCCO)cc3)[nH]c(=O)c12` the remaining activity was 94.7%.
The remaining activity of `O=C1NC(=O)/C(=C/c2ccc3nccnc3c2)S1` is reported as 92.2%.
`C[S+]([O-])c1ccc(-c2nc(-c3ccncc3)c(-c3ccc(F)cc3)[nH]2)cc1` (centres unmarked) has a remaining activity of 96.1%.
`CCC(=O)Nc1ccc2ncnc(Nc3cccc(Br)c3)c2c1` gave a remaining activity of 93%.
`CN(C)CCCn1cc(C2=C(c3c[nH]c4ccccc34)C(=O)NC2=O)c2ccccc21` gave a remaining activity of 92.3%.

Set 2
Target: Calcium/calmodulin-dependent protein kinase type II subunit alpha (CAMK2A, Homo sapiens, UniProt Q9UQM7)
Sequence of UniProt Q9UQM7 (whole entry, looked up): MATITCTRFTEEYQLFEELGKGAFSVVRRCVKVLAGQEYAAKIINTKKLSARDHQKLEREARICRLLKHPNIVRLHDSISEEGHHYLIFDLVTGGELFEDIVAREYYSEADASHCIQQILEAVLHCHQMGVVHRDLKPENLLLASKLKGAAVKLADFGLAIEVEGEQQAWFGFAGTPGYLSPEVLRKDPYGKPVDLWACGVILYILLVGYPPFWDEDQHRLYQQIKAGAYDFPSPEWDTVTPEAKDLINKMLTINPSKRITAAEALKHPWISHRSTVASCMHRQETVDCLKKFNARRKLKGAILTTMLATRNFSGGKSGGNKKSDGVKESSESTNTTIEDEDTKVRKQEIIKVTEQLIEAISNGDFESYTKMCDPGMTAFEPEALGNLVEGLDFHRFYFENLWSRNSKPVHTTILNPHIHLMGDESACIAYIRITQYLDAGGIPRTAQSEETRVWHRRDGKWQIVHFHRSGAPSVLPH
Observed: enzyme activity
Mode: inhibitor
Tested at: 10 µM
With `O=C(c1cc(Cc2n[nH]c(=O)c3ccccc23)ccc1F)N1CCN(C(=O)C2CC2)CC1` the inhibition was -5%.
The inhibition of `C=C(C)[C@@H]1CC[C@]2(CO)CC[C@]3(C)[C@H](CC[C@@H]4[C@@]5(C)CC[C@H](O)C(C)(C)[C@@H]5CC[C@]43C)[C@@H]12` is reported as -30%.
`O=C(N[C@@H](Cc1ccccc1)C(=O)N[C@H](CO)Cc1ccccc1)c1ccccc1` gave an inhibition of -45%.
The inhibition of `CCc1c2c(nc3ccc(O)cc13)-c1cc3c(c(=O)n1C2)COC(=O)[C@]3(O)CC` is reported as -3%.
For `C[C@@H]1CC[C@]2(C(=O)O[C@@H]3O[C@H](CO)[C@@H](O)[C@H](O)[C@H]3O)CC[C@]3(C)C(=CC[C@@H]4[C@@]5(C)C[C@@H](O)[C@H](O)[C@@](C)(CO)[C@@H]5CC[C@]43C)[C@@H]2[C@]1(C)O`, the inhibition was 1%.
The inhibition of `O=P(O)(O)O[C@H]1O[C@H](CO)[C@H](O)[C@H](O)[C@H]1O` is reported as -6%.
For `CCC[C@H](N[C@@H](C)C(=O)N1[C@H](C(=O)O)C[C@@H]2CCCC[C@@H]21)C(=O)OCC`, the inhibition was -2%.
With `Cc1cccc(C)c1N(CC(=O)Nc1ccc(-c2ncon2)cc1)C(=O)C1CCS(=O)(=O)CC1` the inhibition was -9%.
`O=C(O)C(O)Cc1cc2ccccc2[nH]1` (centres unmarked) has an inhibition of 28%.
With `CCCCC/C=C\C/C=C\CCCCCCCC(=O)OC` the inhibition was -74%.
For `CC(/C=C/C=C(\C)C(=O)O[C@@H]1O[C@H](CO)[C@@H](O)[C@H](O)[C@H]1O)=C\C=C\C=C(C)\C=C\C=C(/C)C(=O)O[C@@H]1O[C@H](CO[C@@H]2O[C@H](CO)[C@@H](O)[C@H](O)[C@H]2O)[C@@H](O)[C@H](O)[C@H]1O`, the inhibition was 1%.
`O=C1C[C@@H](c2ccc(O[C@@H]3O[C@H](CO)[C@@H](O)[C@H](O)[C@H]3O)cc2)Oc2cc(O)cc(O)c21` gave an inhibition of -24%.

Set 3
SMILES: COc1cc(-c2cn(C3CCc4c(F)cccc4N(CC(F)(F)F)C3=O)nn2)ccc1-n1cnc(C)c1 (centres unmarked)
Observed: cell-free assay
Method: competition with immobilised ligand
Tested at: 1 µM
It gave 100% for remaining binding (STK4 (Homo sapiens, UniProt Q13043)).
NEK10 (Homo sapiens, UniProt Q6ZWH5) — remaining binding: 100%.
The remaining binding was 90% (EGFR (Homo sapiens, UniProt P00533, G719S)).
For SBK3 (Homo sapiens, UniProt P0C264): remaining binding read 100%.
For CDKL5 (Homo sapiens, UniProt O76039): remaining binding read 91%.
The remaining binding was 100% (DDR1 (Homo sapiens, UniProt Q08345)).
It gave 100% for remaining binding (Ribosomal protein S6 kinase alpha-3, N-terminal kinase domain (RPS6KA3, Homo sapiens, UniProt P51812)).
PIK3C2B (Homo sapiens, UniProt O00750) — remaining binding: 100%.
It gave 100% for remaining binding (PRKCD (Homo sapiens, UniProt Q05655)).
The remaining binding was 100% (Ribosomal protein S6 kinase alpha-2, C-terminal kinase domain (RPS6KA2, Homo sapiens, UniProt Q15349)).
For KIT (Homo sapiens, UniProt P10721): remaining binding read 100%.
DCLK3 (Homo sapiens, UniProt Q9C098) — remaining binding: 100%.
It gave 100% for remaining binding (SGK3 (Homo sapiens, UniProt Q96BR1)).
It gave 52% for remaining binding (Tyrosine-protein kinase ABL1, non-phosphorylated (ABL1, Homo sapiens, UniProt P00519, H396P)).
For ROCK1 (Homo sapiens, UniProt Q13464): remaining binding read 100%.
The remaining binding was 92% (NTRK2 (Homo sapiens, UniProt Q16620)).
For PIK3CA (Homo sapiens, UniProt P42336, H1047Y): remaining binding read 100%.
It gave 100% for remaining binding (BMX (Homo sapiens, UniProt P51813)).
For KIT (Homo sapiens, UniProt P10721, A829P): remaining binding read 92%.
For CAMK2A (Homo sapiens, UniProt Q9UQM7): remaining binding read 100%.
MAP3K11 (Homo sapiens, UniProt Q16584) — remaining binding: 100%.
MAP3K14 (Homo sapiens, UniProt Q99558) — remaining binding: 86%.
The remaining binding was 94% (Tyrosine-protein kinase ABL1, non-phosphorylated (ABL1, Homo sapiens, UniProt P00519)).
It gave 100% for remaining binding (YES1 (Homo sapiens, UniProt P07947)).
For KIT (Homo sapiens, UniProt P10721, T670I/V559D): remaining binding read 94%.

Set 4
SMILES: CC#CC(=O)N1CCC[C@H]1c1nc(-c2ccc(C(=O)Nc3ccccn3)cc2)c2c(N)nccn12
Mode: inhibitor
Tested at: 1 µM
It gave 8% for inhibition (DDR2 (Homo sapiens, UniProt Q16832); enzyme activity).
GRK3 (Homo sapiens, UniProt P35626); enzyme activity — inhibition: 0%.
ROCK1 (Homo sapiens, UniProt Q13464); enzyme activity — inhibition: 40%.
The inhibition was 0% (ANKK1 (Homo sapiens, UniProt Q8NFD2); enzyme activity).
The inhibition was 0% (CSNK1A1L (Homo sapiens, UniProt Q8N752); enzyme activity).
The inhibition was 0% (Ribosomal protein S6 kinase alpha-3, C-terminal kinase domain (RPS6KA3, Homo sapiens, UniProt P51812)).
The inhibition was 0% (MYLK2 (Homo sapiens, UniProt Q9H1R3); enzyme activity).
CLK1 (Homo sapiens, UniProt P49759); enzyme activity — inhibition: 7%.
The inhibition was 0% (CHEK2 (Homo sapiens, UniProt O96017); enzyme activity).
It gave 0% for inhibition (STK16 (Homo sapiens, UniProt O75716); enzyme activity).
It gave 0% for inhibition (HIPK2 (Homo sapiens, UniProt Q9H2X6); enzyme activity).
For EGFR (Homo sapiens, UniProt P00533, T790M); enzyme activity: inhibition read 0%.
The inhibition was 0% (AAK1 (Homo sapiens, UniProt Q2M2I8); enzyme activity).
For CDKL3 (Homo sapiens, UniProt Q8IVW4); enzyme activity: inhibition read 0%.
It gave 19% for inhibition (FLT1 (Homo sapiens, UniProt P17948); enzyme activity).
TXK (Homo sapiens, UniProt P42681); enzyme activity — inhibition: 78%.
